{"data": "Measured values gathered from unrelated publications", "GBA2": "Beta-glucosidase (GBA2, Homo sapiens, UniProt Q9HCG7)", "note": "Protocols differ between the studies behind these lines. ± marks the error that the study gave.", "sequence of UniProt Q9HCG7 (whole entry, looked up)": "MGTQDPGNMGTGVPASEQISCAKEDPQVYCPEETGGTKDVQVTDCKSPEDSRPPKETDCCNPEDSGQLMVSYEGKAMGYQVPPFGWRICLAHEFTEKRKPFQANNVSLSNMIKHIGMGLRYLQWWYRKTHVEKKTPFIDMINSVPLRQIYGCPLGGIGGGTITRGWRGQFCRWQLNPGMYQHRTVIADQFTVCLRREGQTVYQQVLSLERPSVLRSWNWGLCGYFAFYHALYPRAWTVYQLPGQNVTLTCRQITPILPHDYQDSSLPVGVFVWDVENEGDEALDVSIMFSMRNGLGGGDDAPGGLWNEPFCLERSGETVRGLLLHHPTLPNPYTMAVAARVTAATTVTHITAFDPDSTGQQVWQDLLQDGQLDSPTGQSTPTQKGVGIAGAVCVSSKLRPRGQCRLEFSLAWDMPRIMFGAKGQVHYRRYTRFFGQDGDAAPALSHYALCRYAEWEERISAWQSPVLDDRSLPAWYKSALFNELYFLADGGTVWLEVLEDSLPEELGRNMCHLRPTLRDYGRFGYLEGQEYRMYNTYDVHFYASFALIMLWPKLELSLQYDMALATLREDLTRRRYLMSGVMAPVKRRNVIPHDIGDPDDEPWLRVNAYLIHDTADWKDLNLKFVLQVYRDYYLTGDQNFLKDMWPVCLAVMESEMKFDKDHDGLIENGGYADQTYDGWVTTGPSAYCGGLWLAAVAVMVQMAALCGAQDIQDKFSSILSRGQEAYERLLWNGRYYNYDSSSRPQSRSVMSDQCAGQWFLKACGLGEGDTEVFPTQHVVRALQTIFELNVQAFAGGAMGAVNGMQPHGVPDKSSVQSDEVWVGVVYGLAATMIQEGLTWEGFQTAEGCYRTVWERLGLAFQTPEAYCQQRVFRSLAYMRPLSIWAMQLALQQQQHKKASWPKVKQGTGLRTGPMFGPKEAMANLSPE"}
{"Compound": "O=C(N/N=C/c1ccc(C[n+]2ccccc2)cc1)c1cc(C(=O)N/N=C/c2ccc(C[n+]3ccccc3)cc2)ncn1", "target or system": "myc22 MYC G4-DNA parallel", "test": "FRET melting", "conditions": "1 µM, K1 buffer, DNA 0.2 µM", "quantity": "ΔTm", "result": "2.3 ± 2.2 °C"}
{"Compound": "COc1cc(O)ccc1CCC(c1ccc(O)cc1)c1cc2c(c(C)c1O)OC(c1ccc(O)cc1)CC2 (mixture of isomers)", "test system": "human blood", "conditions": "10 µM, with: A23187", "quantity": "EPA level", "result": "74600 ± 16300 pg/mL"}
{"Compound": "Nc1ncc(-c2cc(-c3cnn(CC(F)(F)F)c3)ncc2F)nc1C(=O)NC1CNCC(F)C1 (centres unmarked)", "target or system": "AAK1", "test": "KINOMEscan", "conditions": "1 µM", "scale": "reference: control", "quantity": "remaining binding", "result": "100%"}
{"Compound": "CC[n+]1cccc2cc(/C=N/NC(=O)c3cc(C(=O)N/N=C/c4ccc5c(ccc[n+]5CC)c4)ncn3)ccc21", "target or system": "myc22 MYC G4-DNA parallel", "test": "FRET melting", "conditions": "1 µM, K1 buffer, DNA 0.2 µM", "quantity": "ΔTm", "result": "3.9 ± 0.2 °C"}
{"Compound": "COC1CN([C@H]2CC[C@H]([C@@]3(C)Oc4c(Cl)cc(C(=O)NCc5c(SC)cc(C)[nH]c5=O)c(C)c4O3)CC2)C1", "test": "RNA-seq, measured: NRIP3 mouse homolog", "test system": "mouse, HT-1376 xenograft, whole blood", "conditions": "dose not given", "scale": "reference: vehicle", "quantity": "log2 fold change", "result": 1.19}
{"Compound": "CC[n+]1cccc2cc(/C=N/NC(=O)N/N=C/c3ccc4c(ccc[n+]4CC)c3)ccc21", "target or system": "myc22 MYC G4-DNA parallel", "test": "FRET melting", "conditions": "1 µM, K1 buffer, DNA 0.2 µM, with: ds26 10 µM", "quantity": "ΔTm", "result": "4.3 ± 0.3 °C"}
{"Compound": "C=CC(=O)N1[C@@H](c2ccc3c(c2)OCO3)c2[nH]c3ccccc3c2C[C@H]1C(=O)N1CCN(C)CC1", "target or system": "human cyclin E1 N112C-3xFLAG:CDK2", "test": "co-IP with TMT proteomics, measured: HNRNPH1", "conditions": "concentration not given, P31943", "scale": "reference: wild type DMSO", "quantity": "relative co-enrichment", "result": "108%"}
{"Compound": "C=CC(=O)Nc1cccc(Cn2ncc3cnc(Nc4cnn(CCOC)c4)nc32)c1", "target or system": "MAPKAPK5 human", "test": "binding, KINOMEscan", "conditions": "100 nM", "scale": "lower = stronger binding", "quantity": "percent of control", "result": "96%"}
{"Compound": "CCN(CC)CC(=O)Nc1cccc(-n2cc(-c3ccc4ccc(-c5cn(-c6cccc(NC(=O)CN(CC)CC)c6)nn5)cc4c3)nn2)c1", "target or system": "RCC4", "test": "PCR angiogenesis array, measured: HPSE", "conditions": "5 x IC50, 4 h, normoxia", "scale": "reference: untreated", "quantity": "fold regulation", "result": -1.37}
{"Compound": "OC[C@H]1[C@@H](O)[C@H](O)[C@@H](O)CN1CCCCOCCC12CC3CC(CC(C3)C1)C2", "target or system": "GBA2", "test": "inhibitor, 4MU-β-D-glucopyranoside", "test system": "HEK293T homogenates overexpressing GBA2", "quantity": "IC50", "result": "0.58 nM"}
{"Compound": "Cc1ncsc1-c1ccc(C(C)NC(=O)C2CC(O)CN2C(=O)C(NC(=O)CCCCCCCCCCN2CCCC(Nc3ncc(Cl)c(Nc4ccccc4S(=O)(=O)C(C)C)n3)C2)C(C)(C)C)cc1 (centres unmarked)", "target or system": "22Rv1", "test": "RNA-seq, measured: MAPK7 mRNA", "conditions": "concentration not given", "scale": "reference: DMSO", "quantity": "log2 fold change", "result": -1.32}
{"Compound": "O=C(N/N=C/c1cc[n+](Cc2ccccc2)c2ccccc12)N/N=C/c1cc[n+](Cc2ccccc2)c2ccccc12", "target or system": "myc22 MYC G4-DNA parallel", "test": "FRET melting", "conditions": "1 µM, K1 buffer, DNA 0.2 µM, with: ds26 10 µM", "quantity": "ΔTm", "result": "5.6 ± 0.1 °C"}
{"Compound": "CNS(=O)(=O)Nc1nccc(Cc2c(C)c3ccc(Oc4ncccc4F)cc3oc2=O)c1F", "target or system": "NCI-H211", "test": "cell viability", "conditions": "7 days", "quantity": "IC50", "result": "> 1000 nM"}
{"Compound": "CN1CCCNC(=O)c2cccc(c2)C(=O)NCCCN(C)CCCNc2cccc3c2C(=O)c2cccc(c2C3=O)NCCC1", "target or system": "SAS", "test": "RNA-Seq, measured: ICE1 mRNA", "conditions": "1 µM, 6 h", "scale": "reference: untreated cells", "quantity": "log2 fold change", "result": -1.33}
{"Compound": "C=C(NC(=O)c1csc(-c2nc3c(cc2O)-c2nc(cs2)C(=O)NC(C(C)O)C(=O)NC(=C(C)OC)c2nc(cs2)C(=O)NC2c4nc(cs4)C(=O)NC(COC(=O)c4c5c6c(cccc6n4O)COC(=O)C(OC4CC(C)(O)C(N(C)C)C(C)O4)C2OC5)c2nc-3cs2)n1)C(N)=O (centres unmarked)", "target or system": "Streptococcus pneumoniae", "test system": "-4, immunocompromised mice, lung infection", "conditions": "32 mg/kg/day, twice daily, 24 h post-dose", "quantity": "lung bacterial load", "result": "4.16 log CFU/g"}
{"Compound": "CC[n+]1cccc2cc(/C=N/NC(=O)c3cccc(C(=O)N/N=C/c4ccc5c(ccc[n+]5CC)c4)n3)ccc21", "target or system": "myc22 MYC G4-DNA parallel", "test": "FRET melting", "conditions": "1 µM, K1 buffer, DNA 0.2 µM, with: ds26 10 µM", "quantity": "ΔTm", "result": "17.5 ± 0.5 °C"}
{"Compound": "CCCCCCCN1C[C@H](O)[C@@H](O)[C@H](O)[C@H]1CO", "target or system": "GBA2", "test": "inhibitor, 4MU-β-D-glucopyranoside", "test system": "HEK293T homogenates overexpressing GBA2", "quantity": "IC50", "result": "45 nM"}
{"note": "A few entries again:"}
{"Compound": "C=CC(=O)Nc1cccc(Cn2ncc3cnc(Nc4cnn(CCOC)c4)nc32)c1", "target or system": "MAPKAPK5 human", "test": "binding, KINOMEscan", "conditions": "100 nM", "scale": "lower = stronger binding", "quantity": "percent of control", "result": "96%"}
{"Compound": "CNS(=O)(=O)Nc1nccc(Cc2c(C)c3ccc(Oc4ncccc4F)cc3oc2=O)c1F", "target or system": "NCI-H211", "test": "cell viability", "conditions": "7 days", "quantity": "IC50", "result": "> 1000 nM"}
{"Compound": "CN1CCCNC(=O)c2cccc(c2)C(=O)NCCCN(C)CCCNc2cccc3c2C(=O)c2cccc(c2C3=O)NCCC1", "target or system": "SAS", "test": "RNA-Seq, measured: ICE1 mRNA", "conditions": "1 µM, 6 h", "scale": "reference: untreated cells", "quantity": "log2 fold change", "result": -1.33}
